Assay results pooled from the literature.
Target: Protein kinase C alpha type (PRKCA, Homo sapiens, UniProt P17252)

With CNc1cccc2cc(C(=O)Nc3ccc(C(=O)O)cc3)c(=O)[nH]c12 the inhibition was 0.66% (kinase activity, inhibitor; 10 µM).
C=CC(=O)N1CCC[C@@H](n2nc(-c3ccc(Oc4ccccc4)cc3)c3c(N)ncnc32)C1 gave a remaining activity of 30.1% (1 µM).
With Cc1cc(Nc2cc(N3CCN(C)CC3)nc(Sc3ccc(NC(=O)C4CC4)cc3)n2)[nH]n1 the remaining activity was 84% (kinase activity, KinaseProfiler; 0.03 µM, species human; relative to: control).
COc1cc(-c2cncc3c2CN(C)Cc2cc(N4CCNCC4)ccc2-3)cc(OC)c1OC has a remaining activity of 88% (kinase activity; 1 µM, human enzyme, together with: ATP 10 µM; relative to: DMSO control).
For COc1cc(F)ccc1-c1ncnc(Nc2cccc(C[S@](C)(=N)=O)c2)n1, the remaining activity was 69% (kinase activity; 10 µM, together with: 10 µM ATP).
For CNc1ncc2c(/C=C/C(=O)N3CCC(OC)CC3)nn(Cc3cccc(C(F)(F)F)c3)c2n1, the remaining activity was 98% (kinase activity, inhibitor; 1 µM; relative to: untreated control).
For O=C1NC(=O)/C(=C/c2ccc(-c3ccc(F)cc3O)o2)S1, the remaining activity was 102% (enzyme activity; 10 µM).
For c1cnc2ccc(Nc3nc(NC4CC4)c4nc[nH]c4n3)cc2c1, the remaining activity was 84% (kinase activity, inhibitor, SelectScreen kinase profiling; 1 µM; relative to: control).
